Results pooled from the literature.
Compare with care: the assays were run in different laboratories.
PIK3CG: Phosphatidylinositol 4,5-bisphosphate 3-kinase catalytic subunit gamma isoform (PIK3CG, Homo sapiens, UniProt P48736)
Chain of UniProt P48736 (whole entry, looked up): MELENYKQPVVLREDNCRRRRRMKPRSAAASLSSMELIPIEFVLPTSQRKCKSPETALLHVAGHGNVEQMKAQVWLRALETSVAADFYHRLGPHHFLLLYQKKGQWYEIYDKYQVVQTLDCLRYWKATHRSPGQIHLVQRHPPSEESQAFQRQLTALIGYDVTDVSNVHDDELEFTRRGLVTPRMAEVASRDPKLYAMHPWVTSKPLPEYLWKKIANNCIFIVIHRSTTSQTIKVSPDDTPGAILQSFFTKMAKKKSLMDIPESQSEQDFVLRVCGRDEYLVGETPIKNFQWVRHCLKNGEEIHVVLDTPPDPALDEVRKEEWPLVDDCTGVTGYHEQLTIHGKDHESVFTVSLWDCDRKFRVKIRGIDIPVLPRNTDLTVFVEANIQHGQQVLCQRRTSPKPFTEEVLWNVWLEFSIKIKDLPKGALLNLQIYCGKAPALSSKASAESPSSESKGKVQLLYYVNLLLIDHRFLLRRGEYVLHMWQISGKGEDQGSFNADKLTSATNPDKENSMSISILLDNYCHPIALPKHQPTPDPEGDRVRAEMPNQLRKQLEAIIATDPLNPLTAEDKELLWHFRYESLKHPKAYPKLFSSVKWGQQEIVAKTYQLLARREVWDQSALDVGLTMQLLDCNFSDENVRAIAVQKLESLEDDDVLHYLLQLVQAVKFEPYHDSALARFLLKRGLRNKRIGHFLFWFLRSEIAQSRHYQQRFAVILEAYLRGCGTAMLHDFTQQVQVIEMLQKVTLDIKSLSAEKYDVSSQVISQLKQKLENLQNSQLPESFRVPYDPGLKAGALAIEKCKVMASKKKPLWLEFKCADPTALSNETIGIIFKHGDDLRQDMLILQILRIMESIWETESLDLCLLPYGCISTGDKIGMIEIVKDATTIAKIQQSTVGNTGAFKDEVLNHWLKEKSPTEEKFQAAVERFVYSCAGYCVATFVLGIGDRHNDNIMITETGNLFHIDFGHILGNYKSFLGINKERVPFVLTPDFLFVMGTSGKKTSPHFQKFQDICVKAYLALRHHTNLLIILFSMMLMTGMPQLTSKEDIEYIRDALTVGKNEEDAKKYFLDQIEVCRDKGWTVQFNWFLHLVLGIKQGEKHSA
Chymotrypsinogen A: Chymotrypsinogen A (Bos taurus, UniProt P00766)
GBA2: Beta-glucosidase (GBA2, Homo sapiens, UniProt Q9HCG7)
Chain of UniProt Q9HCG7 (whole entry, looked up): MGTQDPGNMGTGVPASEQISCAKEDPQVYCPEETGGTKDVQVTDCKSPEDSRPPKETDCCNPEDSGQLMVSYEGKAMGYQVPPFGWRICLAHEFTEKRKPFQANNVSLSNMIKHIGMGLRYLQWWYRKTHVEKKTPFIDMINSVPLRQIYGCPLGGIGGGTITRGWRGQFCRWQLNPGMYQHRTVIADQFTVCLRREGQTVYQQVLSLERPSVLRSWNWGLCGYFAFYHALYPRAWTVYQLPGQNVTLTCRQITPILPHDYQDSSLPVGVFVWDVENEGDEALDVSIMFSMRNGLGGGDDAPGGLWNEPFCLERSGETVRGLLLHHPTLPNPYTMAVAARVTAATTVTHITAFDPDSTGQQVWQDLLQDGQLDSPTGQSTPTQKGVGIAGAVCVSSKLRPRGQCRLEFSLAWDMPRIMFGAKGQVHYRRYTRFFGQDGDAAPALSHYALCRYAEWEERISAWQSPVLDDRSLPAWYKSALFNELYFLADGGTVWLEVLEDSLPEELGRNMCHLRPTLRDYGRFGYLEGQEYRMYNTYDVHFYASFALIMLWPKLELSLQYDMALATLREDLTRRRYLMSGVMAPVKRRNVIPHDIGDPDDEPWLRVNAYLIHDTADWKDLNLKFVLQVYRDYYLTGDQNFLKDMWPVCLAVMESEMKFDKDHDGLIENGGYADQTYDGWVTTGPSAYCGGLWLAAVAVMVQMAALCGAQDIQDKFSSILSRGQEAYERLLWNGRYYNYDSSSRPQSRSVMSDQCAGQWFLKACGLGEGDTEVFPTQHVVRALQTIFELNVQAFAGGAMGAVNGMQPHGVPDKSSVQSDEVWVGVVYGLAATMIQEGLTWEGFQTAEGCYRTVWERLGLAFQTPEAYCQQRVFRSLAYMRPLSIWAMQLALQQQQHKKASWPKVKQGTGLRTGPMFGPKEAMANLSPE
PPARA ligand-binding domain: Peroxisome proliferator-activated receptor alpha, ligand-binding domain (PPARA, Homo sapiens, UniProt Q07869)
Chain of UniProt Q07869 (whole entry, looked up): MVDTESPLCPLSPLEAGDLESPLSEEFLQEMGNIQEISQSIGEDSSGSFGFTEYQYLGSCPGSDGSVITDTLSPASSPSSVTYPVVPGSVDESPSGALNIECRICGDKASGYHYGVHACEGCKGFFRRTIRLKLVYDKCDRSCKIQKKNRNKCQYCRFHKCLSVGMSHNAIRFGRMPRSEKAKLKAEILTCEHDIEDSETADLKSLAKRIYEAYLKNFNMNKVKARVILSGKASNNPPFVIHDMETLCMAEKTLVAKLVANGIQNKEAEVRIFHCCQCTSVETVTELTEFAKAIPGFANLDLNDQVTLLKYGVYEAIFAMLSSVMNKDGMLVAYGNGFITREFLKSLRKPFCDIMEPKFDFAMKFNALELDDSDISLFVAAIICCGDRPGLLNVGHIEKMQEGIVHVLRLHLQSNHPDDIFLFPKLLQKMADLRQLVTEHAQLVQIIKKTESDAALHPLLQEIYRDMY
Chain of UniProt P49720 (whole entry, looked up): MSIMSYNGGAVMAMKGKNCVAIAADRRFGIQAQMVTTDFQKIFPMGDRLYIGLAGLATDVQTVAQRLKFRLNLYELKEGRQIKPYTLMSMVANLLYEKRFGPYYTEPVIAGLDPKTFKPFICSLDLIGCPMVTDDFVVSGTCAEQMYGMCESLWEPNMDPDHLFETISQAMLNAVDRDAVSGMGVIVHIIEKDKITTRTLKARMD
Chain of UniProt Q15109 (whole entry, looked up): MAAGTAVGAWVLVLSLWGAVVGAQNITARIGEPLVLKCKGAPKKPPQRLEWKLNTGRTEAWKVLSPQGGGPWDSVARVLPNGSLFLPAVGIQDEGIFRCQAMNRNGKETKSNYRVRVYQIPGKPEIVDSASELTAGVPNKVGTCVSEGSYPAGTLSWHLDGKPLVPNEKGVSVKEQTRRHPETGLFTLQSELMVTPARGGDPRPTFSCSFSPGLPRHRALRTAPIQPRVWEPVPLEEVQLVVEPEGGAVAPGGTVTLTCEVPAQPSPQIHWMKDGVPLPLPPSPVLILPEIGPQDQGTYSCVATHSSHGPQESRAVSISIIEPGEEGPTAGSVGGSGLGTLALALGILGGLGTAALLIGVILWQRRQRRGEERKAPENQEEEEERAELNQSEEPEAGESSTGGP
Chain of UniProt P07949 (whole entry, looked up): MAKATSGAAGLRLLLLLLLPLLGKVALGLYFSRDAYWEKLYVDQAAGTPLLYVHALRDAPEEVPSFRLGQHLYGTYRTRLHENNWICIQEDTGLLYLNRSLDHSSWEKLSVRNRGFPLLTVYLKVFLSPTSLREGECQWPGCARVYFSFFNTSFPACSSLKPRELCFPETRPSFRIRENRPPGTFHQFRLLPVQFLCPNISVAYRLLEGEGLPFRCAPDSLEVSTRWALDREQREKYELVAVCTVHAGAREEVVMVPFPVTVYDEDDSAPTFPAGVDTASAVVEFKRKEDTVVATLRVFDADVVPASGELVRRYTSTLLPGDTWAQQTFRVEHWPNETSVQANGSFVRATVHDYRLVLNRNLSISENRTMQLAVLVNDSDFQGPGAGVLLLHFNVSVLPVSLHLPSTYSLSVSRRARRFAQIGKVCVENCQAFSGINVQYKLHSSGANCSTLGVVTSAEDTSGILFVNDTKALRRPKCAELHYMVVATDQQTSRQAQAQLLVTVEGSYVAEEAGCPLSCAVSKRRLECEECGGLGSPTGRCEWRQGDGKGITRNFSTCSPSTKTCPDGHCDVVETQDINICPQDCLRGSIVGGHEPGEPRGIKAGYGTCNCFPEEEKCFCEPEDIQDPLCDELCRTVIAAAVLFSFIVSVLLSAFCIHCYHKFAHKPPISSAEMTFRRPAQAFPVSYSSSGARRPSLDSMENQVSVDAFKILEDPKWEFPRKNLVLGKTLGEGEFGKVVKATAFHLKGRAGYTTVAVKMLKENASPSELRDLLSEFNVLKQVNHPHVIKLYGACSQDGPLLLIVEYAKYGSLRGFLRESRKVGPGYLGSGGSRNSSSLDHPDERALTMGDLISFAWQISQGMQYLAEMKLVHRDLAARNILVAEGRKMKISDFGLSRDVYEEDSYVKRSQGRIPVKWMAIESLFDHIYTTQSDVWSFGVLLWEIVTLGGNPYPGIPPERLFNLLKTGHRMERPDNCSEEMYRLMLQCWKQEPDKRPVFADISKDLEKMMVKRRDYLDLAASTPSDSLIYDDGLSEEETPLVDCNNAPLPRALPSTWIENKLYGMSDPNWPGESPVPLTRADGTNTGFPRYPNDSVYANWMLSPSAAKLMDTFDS
Chain of UniProt Q99436 (whole entry, looked up): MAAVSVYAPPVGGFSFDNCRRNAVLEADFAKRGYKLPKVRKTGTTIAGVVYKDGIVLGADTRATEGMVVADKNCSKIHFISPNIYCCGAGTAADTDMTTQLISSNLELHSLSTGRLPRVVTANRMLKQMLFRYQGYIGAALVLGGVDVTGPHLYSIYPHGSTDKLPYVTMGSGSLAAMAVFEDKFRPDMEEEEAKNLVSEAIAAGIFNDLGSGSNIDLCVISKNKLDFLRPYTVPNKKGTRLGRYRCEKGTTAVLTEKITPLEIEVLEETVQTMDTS
Chain of UniProt O14757 (whole entry, looked up): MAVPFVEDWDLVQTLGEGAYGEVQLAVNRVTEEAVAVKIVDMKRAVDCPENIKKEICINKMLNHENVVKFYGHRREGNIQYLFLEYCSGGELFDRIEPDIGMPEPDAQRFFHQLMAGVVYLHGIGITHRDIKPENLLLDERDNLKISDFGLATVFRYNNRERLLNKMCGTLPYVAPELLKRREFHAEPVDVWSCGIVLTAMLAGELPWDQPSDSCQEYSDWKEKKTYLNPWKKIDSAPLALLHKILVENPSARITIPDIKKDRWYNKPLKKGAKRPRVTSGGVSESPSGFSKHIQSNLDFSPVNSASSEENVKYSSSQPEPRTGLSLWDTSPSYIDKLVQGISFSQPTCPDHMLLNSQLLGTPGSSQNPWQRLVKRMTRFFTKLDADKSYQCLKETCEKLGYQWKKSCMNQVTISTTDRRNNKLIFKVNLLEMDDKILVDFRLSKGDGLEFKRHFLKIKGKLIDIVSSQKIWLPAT

Compound	target	assay	system	conditions	IC50
Cc1nc(Nc2ccc3c(c2)/C(=C/c2ccccc2Cl)C(=O)N3C)c2ccccc2n1	PIK3CG	enzyme activity, inhibitor, ADP detection	–	–	0.178 µM
O=C(Nc1ccccc1)c1ccccc1NC(=O)C(C(F)(F)F)C(F)(F)F	Chymotrypsinogen A	enzyme activity, inhibitor, fluorescence	–	–	4.4 µM
Cc1nn(-c2cccc(N)c2)c(=O)c2cnc(Nc3ccc(N4CCNCC4)cc3)nc12	RPS6KA2 (Homo sapiens, UniProt Q15349)	enzyme activity, inhibitor	–	–	> 10 µM
CCCCCCN1C[C@H](O)[C@@H](O)[C@H](O)[C@H]1CO	GBA2	inhibitor, 4MU-β-D-glucopyranoside	HEK293T homogenates overexpressing GBA2	–	0.11 µM
CCN(CC)CC(=O)Nc1cccc(-n2cc(-c3ccc4ccc(-c5cn(-c6cccc(NC(=O)CN(CC)CC)c6)nn5)cc4c3)nn2)c1	RET (Homo sapiens, UniProt P07949)	enzyme activity, inhibitor	–	–	> 10 µM
Cc1cccc(-n2nc(S)sc2=S)c1	Adenylate cyclase type 10 (Homo sapiens, UniProt Q96PN6)	enzyme activity, inhibitor	–	–	> 20 µM
O=C(Nc1cccnc1)C(C(F)(F)F)C(F)(F)F	Chymotrypsinogen A	enzyme activity, inhibitor, fluorescence	–	–	83 µM
Cc1c(Cc2ccc(OC(C)C(=O)O)cc2)c2ccc(C(=O)N[C@@H](C)c3ccc(C(C)(C)C)cc3)cc2n1C (stereo partly drawn)	PPARA ligand-binding domain	reporter gene, luciferase reporter	HEK293T, Gal4-PPARα LBD	–	2.46 µM
Cc1cnc(Nc2ccc3c(c2)CCN(C(=O)/C=C/C(=O)C2CCC(C)CC2)C3)nc1-c1cnn(C(C)C)c1 (stereo not drawn)	JAK2 (Homo sapiens, UniProt O60674)	enzyme activity, inhibitor, ADP detection	–	–	0.00205 µM
OC[C@@H]1[C@@H](O)[C@H](O)[C@@H](O)CN1CCCCCOCC1CCCC1	GBA2	inhibitor, 4MU-β-D-glucopyranoside	HEK293T homogenates overexpressing GBA2	–	0.009 µM
O=C(O)COc1ccccc1NC(=O)C(C(F)(F)F)C(F)(F)F	Chymotrypsinogen A	enzyme activity, inhibitor, fluorescence	–	–	120 µM
O=C1/C(=N\c2ccc(Cl)cc2)c2ccccc2N1Cc1ccccc1	PIK3CG	enzyme activity, inhibitor, ADP detection	–	–	0.00136 µM
Nc1ncc2c(n1)-c1c([nH]c3ccc(C#Cc4ccncc4)cc13)CCC2	PIP4K2C (Homo sapiens, UniProt Q8TBX8)	target engagement in cells, BRET	–	–	7.2 µM
Cc1c(Cc2cccc(OC(C)(C)C(=O)O)c2)c2ccc(C(=O)N[C@@H](C)c3cccc(C4CC4)c3)cc2n1C	PPARA ligand-binding domain	reporter gene, luciferase reporter	HEK293T, Gal4-PPARα LBD	–	3.17 µM
N#Cc1cnc(NC(=O)Nc2cc(Cl)ccc2N)cn1	CHEK1 (Homo sapiens, UniProt O14757)	enzyme activity, inhibitor	–	–	0.535 µM
O=C(CCCCCN1C[C@H](O)[C@@H](O)[C@H](O)[C@H]1CO)NC12CC3CC(CC(C3)C1)C2	GBA2	inhibitor, 4MU-β-D-glucopyranoside	HEK293T homogenates overexpressing GBA2	–	0.009 µM
COCCN(C)C(C)C(=O)NC(Cc1ccc(-c2ccccc2)cc1)B(O)O (stereo not drawn)	Proteasome subunit beta type-3/PSMB7 (Homo sapiens, UniProt P49720+Q99436)	β2c trypsin-like activity, inhibitor	–	constitutive proteasome, with: Ac-KQL-AMC	> 10 µM
CCCCCNC(=O)N1N=C(c2ccc(Cl)cc2)CC1c1ccc(NC(=O)Nc2ccc(Cl)cc2)cc1 (stereo not drawn)	AGER (Homo sapiens, UniProt Q15109)	–	–	–	25 µM

For quick reference, copied from above:
Compound	target	assay	system	conditions	IC50
N#Cc1cnc(NC(=O)Nc2cc(Cl)ccc2N)cn1	CHEK1 (Homo sapiens, UniProt O14757)	enzyme activity, inhibitor	–	–	0.535 µM
